Results of several laboratories.
Numbered parts are unrelated; each lists some results of a single study.

Study 1
Target: Histone acetyltransferase KAT6A, winged helix 2, GST fusion (KAT6A, Homo sapiens, UniProt Q92794, residues 85-181)
Technique: protein binding microarray
Molecule type: double-stranded DNA, one strand shown
Matrix: in vitro
Tested at: not given
Setting: 8-mer, flanks averaged, mean of 2 arrays, mostly near background
Reference: not given
Direction: higher = stronger binding
Residues (chain): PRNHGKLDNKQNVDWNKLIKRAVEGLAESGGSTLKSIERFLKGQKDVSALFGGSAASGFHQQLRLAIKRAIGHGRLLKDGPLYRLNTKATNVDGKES
The E-score of `ATCGGCAA` is reported as 0.0836.
The E-score of `AGCCTGCA` is reported as 0.163.
`CAGCAACG` has an E-score of 0.0558.
The E-score of `AGATACCA` is reported as -0.106.
For `CGACGGAA`, the E-score was 0.00571.
`GCAAGACC` gave an E-score of -0.017.
With `GATTTTGC` the E-score was -0.135.
For `GAATCGGC`, the E-score was 0.148.
With `AAATAGTT` the E-score was -0.127.
`TAATGTGA` gave an E-score of 0.0272.
`CGGCAATC` has an E-score of 0.152.
`CCTCTCAA` gave an E-score of -0.00407.
For `ACAAGCAC`, the E-score was -0.000875.
`CCAGTTGA` has an E-score of -0.0191.
The E-score of `TAGGGCAA` is reported as -0.0992.
With `AGTTATTG` the E-score was -0.0576.
`GCGGGGTA` gave an E-score of 0.0642.
With `ACACCGGA` the E-score was 0.124.
`ATGGCGGC` gave an E-score of 0.0858.
`AACAGGGT` gave an E-score of -0.0578.
`CCTGTTGA` gave an E-score of 0.12.
For `CTGGTGCA`, the E-score was -0.0434.
With `TAGGTATA` the E-score was 0.0105.
For `AAAATTGA`, the E-score was -0.0932.
`ACTAATTA` gave an E-score of 0.136.

Study 2
Target: Ras GTPase-activating protein-binding protein 1, RRM domain (G3BP1, Homo sapiens, UniProt Q13283)
UniProt Q13283, sequence (whole entry, looked up): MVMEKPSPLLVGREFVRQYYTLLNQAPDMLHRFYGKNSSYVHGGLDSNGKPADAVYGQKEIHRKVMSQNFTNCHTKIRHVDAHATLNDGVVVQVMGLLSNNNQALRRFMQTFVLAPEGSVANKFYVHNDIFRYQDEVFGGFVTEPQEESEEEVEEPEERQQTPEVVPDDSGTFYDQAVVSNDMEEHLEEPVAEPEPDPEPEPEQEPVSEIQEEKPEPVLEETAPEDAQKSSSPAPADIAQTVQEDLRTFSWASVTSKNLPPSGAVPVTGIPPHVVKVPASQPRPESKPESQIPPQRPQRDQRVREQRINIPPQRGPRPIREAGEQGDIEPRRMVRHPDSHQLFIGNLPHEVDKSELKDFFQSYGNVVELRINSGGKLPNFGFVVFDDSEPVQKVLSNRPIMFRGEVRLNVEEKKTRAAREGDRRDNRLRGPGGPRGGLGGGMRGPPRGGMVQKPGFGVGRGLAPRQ
Technique: RNA Bind-n-Seq
Molecule type: RNA
Matrix: in vitro
Tested at: 1 µM
Setting: whole 134-nt RNA, ends assumed
With: 150 mM KCl
Reference: input library
Direction: higher = stronger binding
With `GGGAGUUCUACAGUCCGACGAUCUUAGUGAAUGUAUAGAAGGAGUAAAGGUAGAGCACAAUCCUGACCUGUCAGUUACUGUCAGCACCAAAAAAUCCCACCAGACAUGGACCUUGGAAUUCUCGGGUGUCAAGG` the log2 enrichment was 0.199.
The log2 enrichment of `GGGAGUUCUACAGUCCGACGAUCCAAGUCCUGUGCUACACAUCGUAUGUACCGAAUCGGCCCCGGGGCCCCGGCCCCGGAAAGUAUUAUGUUACGCCGUUCGGAUCUGCACUUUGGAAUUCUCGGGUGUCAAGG` is reported as -0.599.
For `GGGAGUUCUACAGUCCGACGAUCCCUGUGCUACACAUCGUAUGUACCGAAUCGGUUUUUUUGGGUUUUUUUGGGUUUUUUUGGGAAAGUAUUAUGUUACGCCGUUCGGAUCUGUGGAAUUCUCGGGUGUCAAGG`, the log2 enrichment was -0.371.
For `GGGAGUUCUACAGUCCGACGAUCACCAUGCAGGUGGGCAUCUUUGGGAAGUGGGGCAAGGGGGGGAUAGGGAGGGGGGUAACACUUUGGGUACAGGUGGUCCCAGGUCGUUUCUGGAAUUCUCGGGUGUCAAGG`, the log2 enrichment was 0.858.
For `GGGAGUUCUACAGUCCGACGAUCAAGUCCUGUGCUACACAUCGUAUGUACCGAAUCGGGGCCCCGGCCCCGGGGCCCCGGAAAGUAUUAUGUUACGCCGUUCGGAUCUGCACUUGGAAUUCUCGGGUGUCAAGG`, the log2 enrichment was -1.36.
For `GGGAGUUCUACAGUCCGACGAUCUGGGAGGUGGAUUUUGUUUACUUUUUUAGCUCAUUUCCAGGGGUGGGAAUUUUUUUUUAAUAUGUGUCAUGAAUAAAGUUGUUUUUGAAAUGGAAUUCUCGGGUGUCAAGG`, the log2 enrichment was 0.944.
For `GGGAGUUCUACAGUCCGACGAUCGUCCUGUGCUACACAUCGUAUGUACCGAAUCGGAAAAAAAGGUUUUUGGAAAAAAAGGAAAGUAUUAUGUUACGCCGUUCGGAUCUGCACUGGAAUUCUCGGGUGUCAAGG`, the log2 enrichment was -0.198.
`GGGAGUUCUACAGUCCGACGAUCCAAGUCCUGUGCUACACAUCGUAUGUACCGAAUCGGGGUUGGGGUUGGGUUGGGGAAAGUAUUAUGUUACGCCGUUCGGAUCUGCACUUCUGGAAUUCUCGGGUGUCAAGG` gave a log2 enrichment of 1.07.
`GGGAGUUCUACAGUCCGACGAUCUGGGAGGUGGAUUUUGUUUAUUUUUUUAGCUCAUUUCCAGGGGUGGGAAUUUUUUUUUAAUAUGUGUCAUGAACAAAGUUGUUUUUGAAAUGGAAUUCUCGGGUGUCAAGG` has a log2 enrichment of 1.19.
`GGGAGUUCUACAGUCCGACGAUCCAAGUCCUGUGCUACACAUCGUAUGUACCGAAUCGGGCCCGGGCCCGGCCCGGGGAAAGUAUUAUGUUACGCCGUUCGGAUCUGCACUUCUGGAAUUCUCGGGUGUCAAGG` has a log2 enrichment of -0.73.

Study 3
Target: Sal-like protein 4, full length isoform B (SALL4, Homo sapiens, UniProt Q9UJQ4-2, residues 1-616)
Technique: universal PBM
Molecule type: double-stranded DNA, one strand shown
Matrix: in vitro
Tested at: not given
Setting: 8-mer, flanks averaged, mean of replicates
Direction: higher = stronger binding
`CGCAGGAA` gave an E-score of -0.202.
`AGGTACCA` has an E-score of -0.0915.
`AATGCCAT` gave an E-score of 0.146.
The E-score of `CACGCCTC` is reported as -0.184.
For `TGTCGTAA`, the E-score was 0.0635.
With `ACGTGTTA` the E-score was 0.177.
With `CTTGGGAA` the E-score was 0.0242.
With `AAGTCGAT` the E-score was 0.095.
`ACTATTTC` has an E-score of 0.238.
With `CGAGTGAC` the E-score was -0.241.
`AAACGATA` gave an E-score of 0.173.
`ACTTTCGC` has an E-score of 0.0214.
For `CTTGTAAC`, the E-score was 0.176.
With `GAGCGCTA` the E-score was -0.142.
`AATTAATT` gave an E-score of 0.378.
For `CTACAAGA`, the E-score was 0.0454.
`CCACGTGG` has an E-score of -0.441.
With `GATGTTGA` the E-score was 0.0352.
`ATTGGAGC` has an E-score of 0.0407.
For `GGGCTCAC`, the E-score was -0.375.
For `CGTAGGAA`, the E-score was -0.08.
The E-score of `CCGGCGCA` is reported as -0.354.
`ATCAGCGC` has an E-score of -0.157.
The E-score of `CATTTCCA` is reported as 0.143.
`ATTACTGA` gave an E-score of 0.233.

Study 4
Target: RNA binding protein fox-1 homolog 2, RRM domain, GST-SBP tag (RBFOX2, Homo sapiens, UniProt O43251-10, residues 100-194)
Technique: RNA Bind-n-Seq
Molecule type: RNA
Matrix: in vitro
Tested at: 365 nM
Setting: natural RNA segment, single round, ends assumed
Reference: no-protein control
Direction: higher = stronger binding
Target sequence (chain): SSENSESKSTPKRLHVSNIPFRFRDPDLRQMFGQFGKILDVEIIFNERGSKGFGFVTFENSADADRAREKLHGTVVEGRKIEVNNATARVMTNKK
For `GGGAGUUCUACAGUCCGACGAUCCUUUUCUAUUACUAAAUCUGAAAUAAAAUCAGUUUCUUUCCAGUUUAAAUGUUAACCAUUUGCAGAUUGCAUUAGCAUGUCUCUGCCUCUCUACCCUGAAAUGGGUGAAGUGGAAUUCUCGGGUGCCAA`, “RBNS enrichment (R)” read 2.45.
`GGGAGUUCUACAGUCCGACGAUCUAAAAAGUAAAAAUUGUAGUUUAAAAAAUCCUUUCCUCUUUCAUACAAAUAAGAAAUGGAAAUUGCUCGUUUAUUGUAUAAGAUAGAAGAUUCGUUUAAAGUGUUUCCCCUGGAAUUCUCGGGUGCCAA` — result for “RBNS enrichment (R)”: 0.598.
`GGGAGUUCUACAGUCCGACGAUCGCAUGGUGGGGCCCCUGACCAACCUACACAAGUUCCCUCCCACAAGUGGACAUCAGUGUCUUCUCUGUGAGGCAUCUGGCCAUUCGCACUCCCUGGUGUGGUCAGCCUCUUGGAAUUCUCGGGUGCCAA` — result for “RBNS enrichment (R)”: 9.14.
Under “RBNS enrichment (R)”, `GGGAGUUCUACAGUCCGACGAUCUACCAGCAGGACUUGUUGCCAGUGAUACCAAAACAGACUUUUCCCAAGCAGUGCCUCACAUGUCUGCUGGUGUGGCUUUGGGAUUCUCCUGCCCCACCCCCCCGUCCAUGUGGAAUUCUCGGGUGCCAA` is recorded as 2.19.
For `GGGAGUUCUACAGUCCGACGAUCUGUAAUGGAGUGAGCGUAGCAGCUCAGCUCUUUGGAUCAGUCUUUGUGAUUUCAUAGCGAGUUUUCUGACCAGCUUUUGCGGAGAUUUUGAACAGAACUGCUAUUUCCUCUGGAAUUCUCGGGUGCCAA`, “RBNS enrichment (R)” read 0.341.
`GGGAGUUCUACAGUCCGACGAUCUUCAUAACAUAUGGAAUGCUUUAAGCAAUUGUUUUGAAAAAAAUCUGCGUAUCUUUGACUUAAUUGGCACAUGACUUUUUCAAGCAGCCAUUCAUUCAGAGGUUUGUUUUUGGAAUUCUCGGGUGCCAA`: “RBNS enrichment (R)” 0.422.
Under “RBNS enrichment (R)”, `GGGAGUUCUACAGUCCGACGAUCGCCCUUCCCUGAGCAUCCGACUCUUCCAGCAACAAUUCUGUUGGAUUUAAGGCCAAGGGCCAGUGGGUGGCAUGGGGUGGCACUAAUCUUGUGUGUUGCUUGGACAUUUGUGGAAUUCUCGGGUGCCAA` is recorded as 0.795.
`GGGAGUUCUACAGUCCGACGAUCCCAAGAAGUUCCCAUCAAAGACCAAGUAUGUGCCUGGCUCCUUAGGAGGGAUGACUCCUGACCACACUGUUGAAGGCUUGCUCUUGUCAAAUACUCUGUCUGCUAUGGAAUGGAAUUCUCGGGUGCCAA` — result for “RBNS enrichment (R)”: 1.47.
Under “RBNS enrichment (R)”, `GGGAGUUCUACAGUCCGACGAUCUGUAUUGCUUUUAAGAGAGCCAUCAGUUAGCUAUCAGAAUCUAGGUUGAUGCAUUUUUGUACUUAGCUGUACUGUGUGAUAUUUUUCAUUAUUUUAGGAUGCCAACAUGAUGGAAUUCUCGGGUGCCAA` is recorded as 0.279.
For `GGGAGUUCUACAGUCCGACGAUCUUAGACAUAUAUUGCCAAGCCAAAGUUACCAUAUUUCGGUGUUUUUGUGUUUACUCUUUGUAAAGCAAAGAGGUCUGUAUUUACACACCUUUACCUAGGGGUAUGUUUUCUGGAAUUCUCGGGUGCCAA`, “RBNS enrichment (R)” read 0.345.
`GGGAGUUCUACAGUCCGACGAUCUAGAAUGGCAUCCUGGUCCUGGAUGCAGAUUCUCAAGUAAAAUUGCUGUUAAAUUUCUUCAAGUCCAGAGAAGCAAAUCUUAGUGCGGGCAGACCGAGUUAGUGUUUGAUUGGAAUUCUCGGGUGCCAA` — result for “RBNS enrichment (R)”: 3.12.
`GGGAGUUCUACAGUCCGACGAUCUUAACCCUUUAUCUUUCUGCCCACCCUGCCCAAACAUAUUUUAACCCAGGUUCUAAACUGAAACUGACUAGAGAUGAAUCCAGCGCCUGACAGAAUGUCAUUCUCCUUCAUGGAAUUCUCGGGUGCCAA`: “RBNS enrichment (R)” 0.364.

Repeated from above (study 2):
For `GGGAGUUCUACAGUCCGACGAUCGUCCUGUGCUACACAUCGUAUGUACCGAAUCGGAAAAAAAGGUUUUUGGAAAAAAAGGAAAGUAUUAUGUUACGCCGUUCGGAUCUGCACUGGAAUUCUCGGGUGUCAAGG`, the log2 enrichment was -0.198.
With `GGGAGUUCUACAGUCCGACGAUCUUAGUGAAUGUAUAGAAGGAGUAAAGGUAGAGCACAAUCCUGACCUGUCAGUUACUGUCAGCACCAAAAAAUCCCACCAGACAUGGACCUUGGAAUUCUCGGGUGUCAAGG` the log2 enrichment was 0.199.
The log2 enrichment of `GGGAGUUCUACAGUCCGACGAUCCAAGUCCUGUGCUACACAUCGUAUGUACCGAAUCGGCCCCGGGGCCCCGGCCCCGGAAAGUAUUAUGUUACGCCGUUCGGAUCUGCACUUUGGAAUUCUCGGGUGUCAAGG` is reported as -0.599.
For `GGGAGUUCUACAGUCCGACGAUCAAGUCCUGUGCUACACAUCGUAUGUACCGAAUCGGGGCCCCGGCCCCGGGGCCCCGGAAAGUAUUAUGUUACGCCGUUCGGAUCUGCACUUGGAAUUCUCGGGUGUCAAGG`, the log2 enrichment was -1.36.
